# Assay results pooled from the literature.
# Every numbered part comes from another study and shows a few of its results, in no order.

# Series 1 — method: protein-binding microarray; form: double-stranded DNA, one strand shown; medium: in vitro; concentration: not given; direction: higher = stronger binding
# Target: Protein C-ets-1 (ETS1, Homo sapiens, UniProt P14921, residues 1-441, full length assumed)
# Notes: k-mer, scored over probes, only values ≥0.25
# Target sequence (chain): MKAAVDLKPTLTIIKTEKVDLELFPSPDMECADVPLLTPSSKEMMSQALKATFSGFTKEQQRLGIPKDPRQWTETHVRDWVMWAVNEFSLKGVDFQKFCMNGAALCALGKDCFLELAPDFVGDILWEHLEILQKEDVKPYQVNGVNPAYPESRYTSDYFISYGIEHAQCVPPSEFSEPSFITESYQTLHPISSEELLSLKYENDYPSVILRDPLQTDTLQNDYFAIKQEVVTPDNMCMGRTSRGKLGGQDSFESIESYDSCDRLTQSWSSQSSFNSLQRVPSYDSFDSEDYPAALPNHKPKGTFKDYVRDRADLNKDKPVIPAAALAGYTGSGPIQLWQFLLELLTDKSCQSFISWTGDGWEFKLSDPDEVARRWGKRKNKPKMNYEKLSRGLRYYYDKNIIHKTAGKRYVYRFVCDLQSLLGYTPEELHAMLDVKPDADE
Strand,E-score
AGTTTCCG,0.477
CTAGCGGA,0.271
CGTCCGTC,0.336
AAGGAAAC,0.386
TCCTGGAA,0.383
ATCCGGCA,0.465
CCGGTGCG,0.315
CTTCCGGA,0.491
CTTCCGCA,0.466
AGGAACTC,0.26
GCACGGAA,0.387
ATACTTCC,0.439
AAAGGAAC,0.265
GAAATATC,0.289
GACCGGGA,0.369
CAGGAAGA,0.407

# Series 2 — method: RNA Bind-n-Seq; form: RNA; medium: in vitro; concentration: 365 nM; relative to: no-protein control; direction: higher = stronger binding
# Target: RNA binding protein fox-1 homolog 2, RRM domain, GST-SBP tag (RBFOX2, Homo sapiens, UniProt O43251-10, residues 100-194)
# Notes: natural RNA segment, single round, ends assumed
# Shared flanks, not repeated: GGGAGUUCUACAGUCCGACGAUC … UGGAAUUCUCGGGUGCCAA
# Target sequence (chain): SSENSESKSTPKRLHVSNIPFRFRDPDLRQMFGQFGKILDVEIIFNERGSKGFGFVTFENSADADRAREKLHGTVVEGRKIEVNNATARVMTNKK
Strand,RBNS enrichment (R)
GGCGCCGGCUUCGUGGCUCUGAGGUGUAACGGGGGUGGGCUCCCUCCCUCGGAGGACAUCGUCUGUGUCCAGGUCAGAAAGUGGCCCAGGAAGGGGGCAGUUUCUGUCGC,0.424
UUUCCAUAACCACAAGCCUGAGGCUGCAGCCUUUUAUUUAUGUUUUCCCUUUGGCUGUGACUGGGUGGGGCAGCAUGCAGCUUCUGAUUUUAAAGAGGCAUCUAGGGAAU,2.41
CAGUGCCUCUGGGGGCUUCCUGAUGGAAAACUACACAAACUGAGUUUUUUAAAUGUUAACUCCACUUAGGCUUCUGUUUUCCUCAUAUCCUAUUUUUAAUUACUUCCAAU,0.763
GGUGUGGGAAGACCAAAGGAAGGAACGCUAACAAUUUCUCAUACUUAGAAACAAAAAGAGCUUUCCUUCUCCAGGAAUACUGAACAUGGGAGCUCUUGAAAUAUGUAGUA,0.411
AGUAUCAGUUGUAAGCACAGAUGAUGAUCUGGCUGAGUUCUGAACAAAUCUUGGUCUAUGAGGUCUACACCAAUAACACCCUACUCUGGAAUGGUAACAGAGCCAGCGCU,0.433
AGGAGUCACCAGAUCAUCUGGCUCAGAUGCUCAGGAUGUAUUCCUUUGGCUUACCCCGUGCUCCUGGGUUCUAUGGUGUUUCUAUAAUUAUGAAUAGUGUUGCACUGUAA,0.203
UGAAUGAAAGUCAUUGGUAUUUGGCUUUGUGGUUACAGUACUAAUUUUACUUUGCUGCUCAGUUUUGAAAGUGUGUGAGCUACAUAGGUCUCCCUGUAGGAAAUGUGAAA,1.39
CAUCAGAUACCUGGGCCUCCUCCAUCAGAUGUCUGGGCCUCCUCCAUCAGAUGUCUGGGCCUCCUCCAUCAGAUGUCUGGGCCUCCUCCAUCAGAUGCUUGGGCCUCCUC,0.327
GGACAGCCUUUUCCCCAGGCCUCAGAGCAUUGCUCAUCCGUGCCAAACUGGGUAGGUGGAUUUGAGCGGAAAGACUCCCAAAAUGUGCCAAGAAUUUCCCAGUCCCAGGC,0.225
AAAUAUUAGACACAAUCGUUCCCAUUCCUGACUCUUCAAUGGAAAAGGAAGGUACAGAUGUUUACAGUGGUGCCCCAGGUGACUCGUUCUCACCACAACAAAAGCAACUA,0.292
UCCUCUGGAUUGCAGACCACAUCGCACAGACCCCUGGCUCUGACCCCCUCUCAUCCCGGAAGAAGAGGAAGAAGCAGAACAGACUAGUUUUGAGUAAACUCAGUAUGCAU,0.789
AGAGGGCAGUCAAGGUCAAGAGCCUGUGGUCCAGCAUGCCUGGCCUGGGCGGGCUACCUCUGAGAACGGCUGAAAUGGUGCCCAGUCCAUCAGCAGUGAUGGAAUUUGCU,0.433

# Series 3 — method: universal PBM; form: double-stranded DNA, one strand shown; medium: in vitro; concentration: 600 nM; direction: higher = stronger binding
# Target: Sal-like protein 4, full length isoform A (SALL4, Homo sapiens, UniProt Q9UJQ4, residues 1-1053)
# UniProt Q9UJQ4, sequence (whole entry, looked up): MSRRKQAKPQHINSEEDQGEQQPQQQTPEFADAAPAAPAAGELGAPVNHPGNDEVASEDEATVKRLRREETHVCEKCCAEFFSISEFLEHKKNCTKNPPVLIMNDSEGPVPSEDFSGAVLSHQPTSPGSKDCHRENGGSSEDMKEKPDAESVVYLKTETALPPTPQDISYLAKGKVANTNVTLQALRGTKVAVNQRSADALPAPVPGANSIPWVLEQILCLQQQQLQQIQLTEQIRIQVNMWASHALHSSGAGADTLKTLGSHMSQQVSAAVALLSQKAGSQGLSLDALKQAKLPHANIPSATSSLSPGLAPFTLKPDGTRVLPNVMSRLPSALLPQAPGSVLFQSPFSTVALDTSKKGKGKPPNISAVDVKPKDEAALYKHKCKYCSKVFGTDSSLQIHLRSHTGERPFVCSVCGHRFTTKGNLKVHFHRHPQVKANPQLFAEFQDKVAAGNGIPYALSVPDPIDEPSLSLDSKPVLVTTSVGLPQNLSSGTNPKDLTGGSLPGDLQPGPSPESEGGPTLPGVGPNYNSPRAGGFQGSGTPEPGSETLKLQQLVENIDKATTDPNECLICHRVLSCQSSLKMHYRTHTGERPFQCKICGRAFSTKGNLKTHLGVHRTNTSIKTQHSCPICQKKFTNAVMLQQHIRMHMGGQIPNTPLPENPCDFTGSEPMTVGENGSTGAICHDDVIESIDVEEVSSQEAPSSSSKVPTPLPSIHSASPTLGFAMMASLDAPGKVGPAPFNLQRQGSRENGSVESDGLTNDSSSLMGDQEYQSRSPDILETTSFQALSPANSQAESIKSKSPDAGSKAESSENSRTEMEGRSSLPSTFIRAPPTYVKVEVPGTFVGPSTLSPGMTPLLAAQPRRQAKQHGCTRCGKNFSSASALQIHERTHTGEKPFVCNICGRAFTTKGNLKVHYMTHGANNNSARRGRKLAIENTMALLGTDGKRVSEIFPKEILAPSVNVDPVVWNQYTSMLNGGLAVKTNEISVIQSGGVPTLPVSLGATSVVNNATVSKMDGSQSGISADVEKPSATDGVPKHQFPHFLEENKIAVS
# Notes: 8-mer, flanks averaged, mean of replicates
Strand,E-score
CAGTTATA,0.275
CCATGTCC,-0.213
CTCTGTGC,-0.137
ATGCCCGG,-0.29
GAACTGGC,-0.237
TACCTTGA,0.0911
GTCAGCAA,0.0899
AAGGCCCT,-0.139
GTACAGAC,0.126
CCGAGACG,-0.216
GGCCCGGA,-0.348
CGGGGCAA,-0.228
AGATCCAA,-0.0705
ACTCGAGC,-0.224
GTTTGTAA,0.13
ACTCTGAC,-0.134

# Series 4 — method: protein binding microarray; form: double-stranded DNA, one strand shown; medium: in vitro; concentration: not given; relative to: not given; direction: higher = stronger binding
# Target: Histone acetyltransferase KAT6A, winged helix 2, GST fusion (KAT6A, Homo sapiens, UniProt Q92794, residues 85-181)
# Notes: 8-mer, flanks averaged, mean of 2 arrays, mostly near background
# Residues (chain): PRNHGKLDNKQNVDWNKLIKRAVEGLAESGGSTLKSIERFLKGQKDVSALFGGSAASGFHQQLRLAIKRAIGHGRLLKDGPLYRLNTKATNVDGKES
Strand,E-score
GTCGTATA,0.0596
ATTGACAA,-0.0518
GCGCAAAC,0.144
TAGAAAAA,0.0999
AGCGTCCT,0.0133
CGGTCACG,-0.0703
CCTAGGGC,0.13
CGACGCGC,0.281
GTCTTAAA,-0.0826
CATACTAA,0.111
ACCTCACA,-0.0495
CCACCCTA,-0.135
GCCACTAC,-0.0564
GAATCTAC,-0.0636
CAAAGTCA,-0.083
TGGGAAAA,-0.0817
AAGTGTAC,-0.158
GACACTCC,0.0952
CTGCAGAC,0.0807
AATTGGCT,0.0442
AAACCTAC,-0.0893
GCAGGAAC,-0.055

# Series 5 — method: aptamer microarray, sandwich; form: DNA with 2'F-ANA; medium: in vitro; concentration: 200 nM; with: Cy3 exosite-II aptamer, 400 nM; direction: higher = stronger binding; strand: GGTTGGTGTGGTTGG
# Target: Prothrombin, mature alpha-thrombin (F2, Homo sapiens, UniProt P00734)
# Notes: whole 15-mer aptamer, many near background
Modification,mean fluorescence intensity
2'F-ANA at 4 6 9,263 a.u.
2'F-ANA at 2 4 9 10 13 15,75.9 a.u.
2'F-ANA at 1 2 4 5 8 9 10 11 14 15,52.9 a.u.
2'F-ANA at 1 2 4 7 9 10 11 12 13 14 15,79.7 a.u.
2'F-ANA at 1 4 5 7 8 11 12 13 14,44.6 a.u.
2'F-ANA at 1 2 3 6 8 9 11 12,367 a.u.
2'F-ANA at 1 5 8 9 10 11 14,47.8 a.u.
2'F-ANA at 2 3 4 6 7 8 9 11 12 15,657 a.u.
2'F-ANA at 1 4 8 10 14 15,60 a.u.
2'F-ANA at 2 5 6 7 8 9 10 12,89.3 a.u.
2'F-ANA at 3 5 7 8 9 10 12 15,73.1 a.u.
2'F-ANA at 1 2 3 5 6 10 11 12 14 15,73.2 a.u.
2'F-ANA at 1 2 3 4 7 8 14 15,81.4 a.u.
2'F-ANA at 2 3 4 8 9 11 14 15,256 a.u.
2'F-ANA at 1 3 4 7 14 15,75.6 a.u.
2'F-ANA at 5 8 9 10 11 12 14,45.3 a.u.
2'F-ANA at 2 5 6 12,182 a.u.
2'F-ANA at 3 5 9 11,107 a.u.
2'F-ANA at 1 4 5 7 8 12 13 14,47.6 a.u.
2'F-ANA at 2 4 5 6 8 9 10 11 12 15,51.9 a.u.
2'F-ANA at 3 4 5 6 7 8 9 11,82.5 a.u.

# Series 6 — method: RNA Bind-n-Seq; form: RNA; medium: in vitro; concentration: 200 nM; notes: whole 134-nt RNA, ends assumed; with: 150 mM LiCl; relative to: input library; direction: higher = stronger binding; each molecule: 7-deaza-guanosine replaces G
# Target: Fragile X messenger ribonucleoprotein 1, C-terminal low-complexity region (Fmr1, Mus musculus, UniProt P35922)
# Shared flanks, not repeated: GGGAGUUCUACAGUCCGACGAUC … UGGAAUUCUCGGGUGUCAAGG
Strand,log2 enrichment
UUCACAGGUAAGUGGGGCAGUGUCCGGACCAGUGGACGCAGCAGUGGCCUUGGCACCGAUGUGGGCUCCCGGCUAGCUGGCAGAGACGCG,-0.305
GCAGGAAGUAAAAACAAAUGGAAAUGCUUCGGAUAGUGGCAGGGGUGGAGGUUGCUAAGGAAAGGGUGGGAUGGGAGUGGGUAAAGAGUU,1.34
CCUCAAGUCCUGUGCUACACAUCGUAUGUACCGAAUCGGUUGGGGUUGGUUGGAAAGUAUUAUGUUACGCCGUUCGGAUCUGCACUUCCA,0.0555
CACAGACAACACGCACCCAGACAGACACAGAGGGAAGGGGUUGGGAUGGGGACAGGGUGCACAGCAGGGCGGGGUAGGACCCCAGCCCCU,0.491
AAGUCCUGUGCUACACAUCGUAUGUACCGAAUCGGGGUGGGGAAAAAGGGGUGGGGAAAGUAUUAUGUUACGCCGUUCGGAUCUGCACUU,0.189
CACAGACAACACGCACCCACACAGACACAGAGGGAAGGGGUUGGGAUUGGGACAGGGUGCACAGCAGGGCGGGGUAGGACCCCAGCCCCU,0.546
UUUUAUGUGGAGUUAUGAAGACCUACAGGCAGAGAGAGAAACAGGGGAGCAAGGUGCAAGAGUCCACAAAGGGACCUGAUGAAGCGAAGA,-0.43
ACUGAUGAGAGCCUGAGGAGCCAUUUUGAGCAAUGGGGAACGCUCACGGACUGUGUGGUAAGAUUUGGAAGGGACAAAGCAGUAAAACAG,0.634
CCUCAAGUCCUGUGCUACACAUCGUAUGUACCGAAUCGGGAGGGAGGAGGGGAAAGUAUUAUGUUACGCCGUUCGGAUCUGCACUUCCAG,-0.951
AUAGAUUGCGCAGUCUCUUUGUGGAGAGGACUUGAUCAUUAAAGGAAUCAGCGUUCAUAUAUCCAAUGCCGAACCUAAGCACAAUAGCAA,-0.622
AGUCCUGUGCUACACAUCGUAUGUACCGAAUCGGGGUUUUUUUGGGGAGGGGUGGGGAAAGUAUUAUGUUACGCCGUUCGGAUCUGCACU,-0.649
